Measurements gathered from unrelated publications.
Parts stem from different laboratories: compare values within a part only. Numbers after ± are the reported error.

Block 1
Target: Replicase polyprotein 1ab, polymerase (rep, Severe acute respiratory syndrome coronavirus 2, UniProt P0DTD1)
Observed: enzyme activity
Mode: inhibitor
Tested at: 20 µM
Structure (SMILES)	inhibition [%]
COc1cccc(-c2ccc(NC(=O)C3=C(C(=O)O)CCC3)c(F)c2)c1	7.81
COc1ccc2c(c1)C(C(=O)N(Cc1ccc(N(C)C)cc1)c1ccc(C(C)C)cc1)CCC2 (stereo not drawn)	-7.62
COC(=O)Nc1nc2cc(C(=O)c3ccc(F)cc3)ccc2[nH]1	-16.4
CCCC(=O)Nc1ncnc2c1ncn2[C@@H]1O[C@@H]2COP(=O)(O)O[C@H]2[C@H]1OC(=O)CCC	-0.96
CCC(COC(=O)c1cc(OC)c(OC)c(OC)c1)(c1ccccc1)N(C)C (stereo not drawn)	-19
Cc1noc(C)c1-c1ccc(-c2cc(C(N)=O)c(NC(N)=O)s2)c(O[C@H]2CCNC2)c1	12.8
COc1ccccc1Oc1c(NS(=O)(=O)c2ccc(C(C)(C)C)cc2)nc(-c2ncccn2)nc1OCCO	7
CC1=C(/C=C/C(C)=C/C=C/C(C)=C/CO)C(C)(C)CCC1	33.3
Cc1ccc(-c2ccc(C)cn2)nc1	-4.83
C[C@]12C/C(=C/O)C(=O)C[C@@H]1CC[C@@H]1[C@@H]2CC[C@@]2(C)[C@H]1CC[C@]2(C)O	-3.21
Oc1ccc(OCc2ccccc2)cc1	-3.93
CCCCCCCCc1ccc(CCC(N)(CO)CO)cc1	5.72
CNS(=O)(=O)Cc1ccc2[nH]cc(CCN(C)C)c2c1	-4.13
CN(C)CCN(C)CCc1ccc(Cl)c(Cl)c1	8.68
COC(=O)C1=C(C)NC(C)=C(C(=O)OCCN2CCN(C(c3ccccc3)c3ccccc3)CC2)C1c1cccc([N+](=O)[O-])c1 (stereo not drawn)	22.5
NC(=O)C1=CN([C@@H]2O[C@H](COP(=O)(O)OP(=O)(O)OC[C@H]3O[C@@H](n4cnc5c(N)ncnc54)[C@H](OP(=O)(O)O)[C@@H]3O)[C@@H](O)[C@H]2O)C=CC1	36.5
CC(C)(C)C(=O)OCOC(=O)[C@@H]1N2C(=O)[C@@H](NC(=O)[C@H](N)c3ccccc3)[C@H]2SC1(C)C	1.83
CN1c2ccccc2C(=O)N2CCc3c([nH]c4ccccc34)C21 (stereo in doubt)	-1.48
CCC[C@H](NC(=O)[C@@H]1[C@H]2CCC[C@H]2CN1C(=O)[C@@H](NC(=O)[C@@H](NC(=O)c1cnccn1)C1CCCCC1)C(C)(C)C)C(=O)C(=O)NC1CC1	-1.81
N#Cc1ccc(NCCNCC(=O)N2CCC[C@H]2C#N)nc1	-5.71
O=C(O)c1cccnc1C(=O)O	-5.57
N#Cc1cc2c(OCC(O)CN3CCN(C(c4ccccc4)c4ccccc4)CC3)cccc2[nH]1 (racemic)	-4.28
O=C(/C=C/c1ccc(CN(CCO)CCc2c[nH]c3ccccc23)cc1)NO	-7.52
CC(C)C(=O)Nc1ccc([N+](=O)[O-])c(C(F)(F)F)c1	-0.85
NC(=O)CN1CC(c2ccccc2)CC1=O (stereo not drawn)	-7.24

Block 2
Target: Interferon regulatory factor 3, full length, phosphomimetic (IRF3, Homo sapiens, UniProt Q14653, residues 1-427, S386D/S396D/S398D/S402D/T404D/S405D)
UniProt Q14653, sequence (whole entry, unmodified, looked up): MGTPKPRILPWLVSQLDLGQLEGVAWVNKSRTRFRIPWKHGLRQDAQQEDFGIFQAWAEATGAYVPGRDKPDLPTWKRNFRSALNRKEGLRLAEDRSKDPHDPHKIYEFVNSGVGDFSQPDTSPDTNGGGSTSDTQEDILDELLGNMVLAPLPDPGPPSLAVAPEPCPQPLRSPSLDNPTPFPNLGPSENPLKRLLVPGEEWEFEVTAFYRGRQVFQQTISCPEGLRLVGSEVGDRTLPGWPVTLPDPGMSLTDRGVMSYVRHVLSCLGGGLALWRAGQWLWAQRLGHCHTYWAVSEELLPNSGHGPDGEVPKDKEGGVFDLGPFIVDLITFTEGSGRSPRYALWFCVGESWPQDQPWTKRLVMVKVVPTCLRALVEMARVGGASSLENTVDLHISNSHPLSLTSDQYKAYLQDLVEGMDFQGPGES
Method: protein-binding microarray
Molecule type: double-stranded DNA, one strand shown
Matrix: in vitro
Tested at: 2540 nM top
Notes: 60-bp whole probe
Added: salmon DNA 0.4 mg/ml
Reference: random background probes
Reading: higher = stronger binding
Shared flanks, not repeated: GCCTAGCAC … GTCTTGATTCGCTTGACGCTGCTG
Oligonucleotide	fitted relative affinity [z-score]
TTAGATATCAGTCGCGATTAGTGCTAG	-0.00798
TTAGGACTGCACTTTCGGTTAGTGCTA	1.91
TTAGATTTCAGTTCCGATTCGTGCTAG	4.43
GACGGTATCGGGACTGGGGAGGTGCTA	1.66
GACGGACTGGGGTTTCGGGTCGTGCTA	0.871
TTAGAACTGAGTTGCGATTAGTGCTAG	0.408
GACGATGTCGGGTTTCGAGACGTGCTA	0.697
GACGATTTCGGGTTTCGACACGTGCTA	2.73

Block 3
Cell line: HEK-293T/ACE2
Tested at: concentration not given
Time: 16 (unit not given)
Reference: vehicle
SMILES	viability
CO[C@H]1/C=C/O[C@@]2(C)Oc3c(C)c(O)c4c(c3C2=O)C2=NC3(CCN(CC(C)C)CC3)NC2=C(NC(=O)/C(C)=C\C=C\[C@H](C)[C@H](O)[C@@H](C)[C@@H](O)[C@@H](C)[C@H](OC(C)=O)[C@@H]1C)C4=O	99.2%
CC(=O)OCC(=O)[C@H]1CC[C@H]2[C@@H]3CCC4=CC(=O)CC[C@]4(C)[C@H]3CC[C@]12C	99.2%
CCCSc1nc(N[C@@H]2C[C@H]2c2ccc(F)c(F)c2)c2nnn([C@@H]3C[C@H](OCCO)[C@@H](O)[C@H]3O)c2n1	107%

Block 4
Compound: N[C@@H](Cc1ccc(O)c(O)c1)C(=O)O
rep main protease: Replicase polyprotein 1ab, main protease (rep, Severe acute respiratory syndrome coronavirus 2, UniProt P0DTD1)
tested on	assay	system	setting	inhibition [%]
rep main protease	enzyme activity, inhibitor		20 µM, hit confirmation, with DTT	-24.8
rep main protease	enzyme activity, inhibitor		20 µM, primary screen	33.4
SARS-CoV-2	cytopathic effect	Vero E6	10 µM	-6

Block 5
Target: Centromere-binding protein 1, full length, His-tagged (CBF1, Saccharomyces cerevisiae, UniProt P17106, residues 1-351)
UniProt P17106, sequence (whole entry, looked up): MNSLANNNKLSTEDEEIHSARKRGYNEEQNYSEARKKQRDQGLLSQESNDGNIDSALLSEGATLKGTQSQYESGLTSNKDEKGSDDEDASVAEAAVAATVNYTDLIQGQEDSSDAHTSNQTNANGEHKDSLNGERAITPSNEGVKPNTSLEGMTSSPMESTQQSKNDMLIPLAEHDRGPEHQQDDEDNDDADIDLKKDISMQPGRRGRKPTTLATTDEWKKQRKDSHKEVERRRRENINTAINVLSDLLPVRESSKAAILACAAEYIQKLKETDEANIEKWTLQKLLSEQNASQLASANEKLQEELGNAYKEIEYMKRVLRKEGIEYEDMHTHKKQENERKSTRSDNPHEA
Method: competition protein-binding microarray
Molecule type: double-stranded DNA, one strand shown
Matrix: in vitro
Tested at: 2 µM
Notes: whole 60-bp probe, lowest competitor level
Added: Pho4 competitor, 0.05 µM
Reading: higher = stronger binding
Oligonucleotide	fluorescence intensity
ACTATTAATATATTTTCATATAATTAGTATAATCTCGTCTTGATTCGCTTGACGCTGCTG	92.5 a.u.
AGGTTTTGCTAAATCTATGTGACAGTAATGACCAGGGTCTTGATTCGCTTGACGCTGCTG	95.3 a.u.
CGTCCTAGTGATTGGTACGTGGGTGCCATGAGGAAGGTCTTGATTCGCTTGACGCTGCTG	78 a.u.
TCACGGAAATCTTATCATGTGTCGCCCCATCCAATTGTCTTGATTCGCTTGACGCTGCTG	217 a.u.
CTAATTCAGCACCAACACGTGAGATCCAACTAATAAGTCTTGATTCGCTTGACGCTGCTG	1170 a.u.
AGCCACATCAACTGTCACATGTATGGAAAACTCGCAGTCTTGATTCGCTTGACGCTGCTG	626 a.u.
TTTATGTGGCCTTAAATTTTCGACCTATGGTTCACTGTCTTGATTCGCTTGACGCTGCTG	73.1 a.u.
CGGGGTTAAGTTTGCCTTGTGGGTGGCTTGCAGCAGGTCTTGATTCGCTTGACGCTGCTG	80.4 a.u.

Mixed results
CAMK2A: Calcium/calmodulin-dependent protein kinase type II subunit alpha (CAMK2A, Homo sapiens, UniProt Q9UQM7)
UniProt Q9UQM7, sequence (whole entry, looked up): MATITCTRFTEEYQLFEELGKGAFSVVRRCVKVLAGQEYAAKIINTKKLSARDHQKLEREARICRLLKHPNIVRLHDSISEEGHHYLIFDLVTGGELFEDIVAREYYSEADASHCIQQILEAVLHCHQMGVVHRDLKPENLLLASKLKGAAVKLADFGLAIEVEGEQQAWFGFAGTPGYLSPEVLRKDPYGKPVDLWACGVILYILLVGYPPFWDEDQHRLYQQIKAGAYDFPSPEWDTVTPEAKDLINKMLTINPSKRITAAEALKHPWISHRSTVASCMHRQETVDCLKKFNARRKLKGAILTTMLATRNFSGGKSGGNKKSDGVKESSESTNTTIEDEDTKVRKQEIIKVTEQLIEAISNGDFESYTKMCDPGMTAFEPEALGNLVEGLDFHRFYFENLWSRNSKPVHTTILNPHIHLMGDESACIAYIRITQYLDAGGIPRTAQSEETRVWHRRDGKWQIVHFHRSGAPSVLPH
Compound	tested on	assay	system	setting	scale	measurement	result
Fc1ccccc1Cc1nc(-c2nc(C(F)(F)F)n[nH]2)cn2ccnc12			healthy volunteers	1 mg, single ascending dose	reference: placebo	smooth pursuit eye movements	-0.66%
Cc1c(S(=O)(=O)N2CCc3[nH]ncc3C2)cc(C(=O)NCc2cccnc2N2CCCC2)n1C	Replicase polyprotein 1ab, nsp14 (rep, Severe acute respiratory syndrome coronavirus 2, UniProt P0DTD1)	inhibitor				IC50	0.0002 µM
C[C@H]1O[C@@H](O[C@H]2[C@@H](O)C[C@H](O[C@H]3[C@@H](O)C[C@H](O[C@H]4CC[C@@]5(C)[C@H](CC[C@@H]6[C@@H]5CC[C@]5(C)[C@@H](C7=CC(=O)OC7)CC[C@]65O)C4)O[C@@H]3C)O[C@@H]2C)C[C@H](O)[C@@H]1O	mouse MPNST tumor cells	high-content immunofluorescence imaging, refers to: nuclear SOX9		10 µM, 12 h, mean of 2 replicates	reference: DMSO control, higher = more nuclear SOX9	nuclear SOX9 intensity	122 % of DMSO
COC(=O)Nc1c(N)nc(-c2nn(Cc3ccccc3F)c3ncc(F)cc23)nc1N			human, plasma	oral, 2.5 mg single dose, alone, geometric mean		AUC	1.58 µg·h/mL
C[C@H]1O[C@@H](O[C@H]2[C@@H](O)C[C@H](O[C@H]3[C@@H](O)C[C@H](O[C@H]4CC[C@@]5(C)[C@H](CC[C@@H]6[C@@H]5CC[C@]5(C)[C@@H](C7=CC(=O)OC7)CC[C@]65O)C4)O[C@@H]3C)O[C@@H]2C)C[C@H](O)[C@@H]1O	transmissible gastroenteritis virus	viral replication, immunofluorescence	ST cells	6 h post-infection, pretreated 1 h		IC50	0.373 ± 0.032 µM
C[C@H]1O[C@@H](O[C@H]2[C@@H](O)C[C@H](O[C@H]3[C@@H](O)C[C@H](O[C@H]4CC[C@@]5(C)[C@H](CC[C@@H]6[C@@H]5CC[C@]5(C)[C@@H](C7=CC(=O)OC7)CC[C@]65O)C4)O[C@@H]3C)O[C@@H]2C)C[C@H](O)[C@@H]1O	CAMK2A	enzyme activity, inhibitor		10 µM		inhibition	-3%
O=C(C1=NN(C2CCS(=O)(=O)C2)C(=O)CC1)N1CCN(C/C=C/c2ccccc2)CC1 (stereo not drawn)			mouse, microsomes or S9	2 µM, 0.5 h		remaining compound	14.3%
CC(C)n1cnc(-c2ccc(F)cc2)c1-c1ncc(C(=O)Nc2ccc(N3CCN(C)CC3)cc2)[nH]1		phase 2a clinical trial	patients with idiopathic pulmonary fibrosis	30 mg once daily, all grades, SOC injury, poisoning, procedural complications		patients with injury TEAE	0%
COC(=O)Nc1c(N)nc(-c2nn(Cc3ccccc3F)c3ncc(F)cc23)nc1N	CAMK2A	enzyme activity, inhibitor		10 µM		inhibition	-15%
OC[C@H]1O[C@@H](O[C@@H]2[C@@H](O)[C@H](O[C@@H]3[C@@H](O)[C@H](O[C@@H]4[C@@H](O)[C@H](O[C@H]5[C@H](O)[C@@H](CO)OC(O)[C@@H]5O)O[C@H](CO)[C@H]4O)O[C@H](CO)[C@H]3O)O[C@H](CO)[C@H]2O)[C@H](O)[C@@H](O)[C@@H]1O (stereo partly drawn)	uncharacterized protein (Bacteroides thetaiotaomicron, UniProt A0A173VPY3)	ITC		pH 7.0, 25 °C		ΔG	-87.9 kJ/mol

Some of these lines once more (mixed results):
Compound	tested on	assay	system	setting	scale	measurement	result
C[C@H]1O[C@@H](O[C@H]2[C@@H](O)C[C@H](O[C@H]3[C@@H](O)C[C@H](O[C@H]4CC[C@@]5(C)[C@H](CC[C@@H]6[C@@H]5CC[C@]5(C)[C@@H](C7=CC(=O)OC7)CC[C@]65O)C4)O[C@@H]3C)O[C@@H]2C)C[C@H](O)[C@@H]1O	mouse MPNST tumor cells	high-content immunofluorescence imaging, refers to: nuclear SOX9		10 µM, 12 h, mean of 2 replicates	reference: DMSO control, higher = more nuclear SOX9	nuclear SOX9 intensity	122 % of DMSO
COC(=O)Nc1c(N)nc(-c2nn(Cc3ccccc3F)c3ncc(F)cc23)nc1N			human, plasma	oral, 2.5 mg single dose, alone, geometric mean		AUC	1.58 µg·h/mL
C[C@H]1O[C@@H](O[C@H]2[C@@H](O)C[C@H](O[C@H]3[C@@H](O)C[C@H](O[C@H]4CC[C@@]5(C)[C@H](CC[C@@H]6[C@@H]5CC[C@]5(C)[C@@H](C7=CC(=O)OC7)CC[C@]65O)C4)O[C@@H]3C)O[C@@H]2C)C[C@H](O)[C@@H]1O	transmissible gastroenteritis virus	viral replication, immunofluorescence	ST cells	6 h post-infection, pretreated 1 h		IC50	0.373 ± 0.032 µM
C[C@H]1O[C@@H](O[C@H]2[C@@H](O)C[C@H](O[C@H]3[C@@H](O)C[C@H](O[C@H]4CC[C@@]5(C)[C@H](CC[C@@H]6[C@@H]5CC[C@]5(C)[C@@H](C7=CC(=O)OC7)CC[C@]65O)C4)O[C@@H]3C)O[C@@H]2C)C[C@H](O)[C@@H]1O	CAMK2A	enzyme activity, inhibitor		10 µM		inhibition	-3%
O=C(C1=NN(C2CCS(=O)(=O)C2)C(=O)CC1)N1CCN(C/C=C/c2ccccc2)CC1 (stereo not drawn)			mouse, microsomes or S9	2 µM, 0.5 h		remaining compound	14.3%
CC(C)n1cnc(-c2ccc(F)cc2)c1-c1ncc(C(=O)Nc2ccc(N3CCN(C)CC3)cc2)[nH]1		phase 2a clinical trial	patients with idiopathic pulmonary fibrosis	30 mg once daily, all grades, SOC injury, poisoning, procedural complications		patients with injury TEAE	0%
COC(=O)Nc1c(N)nc(-c2nn(Cc3ccccc3F)c3ncc(F)cc23)nc1N	CAMK2A	enzyme activity, inhibitor		10 µM		inhibition	-15%
OC[C@H]1O[C@@H](O[C@@H]2[C@@H](O)[C@H](O[C@@H]3[C@@H](O)[C@H](O[C@@H]4[C@@H](O)[C@H](O[C@H]5[C@H](O)[C@@H](CO)OC(O)[C@@H]5O)O[C@H](CO)[C@H]4O)O[C@H](CO)[C@H]3O)O[C@H](CO)[C@H]2O)[C@H](O)[C@@H](O)[C@@H]1O (stereo partly drawn)	uncharacterized protein (Bacteroides thetaiotaomicron, UniProt A0A173VPY3)	ITC		pH 7.0, 25 °C		ΔG	-87.9 kJ/mol
